Published values from different studies.
Compare with care: the assays were run in different laboratories. ± gives the spread as reported.
Cell line: HepG2

CCNC1=CC(=O)c2cc3c(cc2C1=O)CCCC3(C)C — CC50 (cytotoxicity, Alamar Blue; 72 h): 149 ± 9 µM
COC(=O)C1C(C=NO)=Cc2cc3c(cc2C1c1cc(OC)c(OC)c(OC)c1)OCO3 (centres unmarked) — CC50 (cell growth or viability, resazurin; 48 h): > 100 µM
COc1ccc(-c2oc3ccc(-c4cc(OC)c(OC)c(OC)c4)cc3c2C#CC2(O)CCCCC2)cc1 — CC50: > 31.6 µM
COc1cc(COC(=O)C2C(C=O)=Cc3cc4c(cc3C2c2cc(OC)c(OC)c(OC)c2)OCO4)cc(OC)c1OC (centres unmarked) — CC50 (cell growth or viability, resazurin; 48 h): 89.9 µM
COC(=O)c1[nH]c(C(=O)OC)c2c1-c1c[nH]c3ccc(Cl)c(c13)C21CNc2ccc(Cl)cc21 (racemic) — CC50 (cell growth or viability, ATP luminescence; 72 h): > 10 µM
CC1(C)CCCc2cc3c(cc21)C(=O)C=CC3=O — CC50 (cytotoxicity, Alamar Blue; 72 h): 13.4 ± 1.3 µM
Cc1ccc(NC(=O)N2CCCN3CCC(c4ccc(C#CC5(O)CCCCC5)cc4)C3C2)cc1 (centres unmarked) — CC50 (cell growth or viability, ATP luminescence; 72 h): 5.32 µM
CNC(=O)CNc1cnc2ccc(-c3ccc(OC)c(OC)c3)cc2n1 — CC50 (96 h): 26.7 ± 13.9 µM
COc1cc(C2c3cc4c(cc3C=C(C=O)C2C(=O)OCC=Cc2ccccc2)OCO4)cc(OC)c1OC (centres unmarked) — CC50 (cell growth or viability, resazurin; 48 h): > 100 µM
CCOC(=O)c1cn(-c2nc(C(F)(F)F)n[nH]2)nn1 — CC50 (cell growth or viability, MTT; 72 h): ≥ 500 µM
COc1ccc(-c2oc3ccc(-c4cc(OC)c(OC)c(OC)c4)cc3c2C#CC(C)(C)O)cc1 — CC50: > 31.6 µM
COC(=O)c1[nH]c(C(=O)OC)c2c1-c1c[nH]c3ccc(Cl)c(c13)C21C=Nc2ccc(Cl)cc21 (racemic) — CC50 (cell growth or viability, ATP luminescence; 72 h): 10 µM
CNC(=O)c1ccc(-c2cnn3ccc(C(=O)Nc4ccc(C#N)cn4)cc23)cc1 — CC50 (96 h): > 50 µM
O=c1ccn([C@@H]2O[C@H](CO)[C@@H](O)[C@H]2F)c(=O)[nH]1 — CC50 (cell growth or viability, SRB; 11 days): > 250 µM
COc1ccc(NC(=O)N2CCCN3CCC(c4ccc(C#CC5CCCCC5)cc4)C3C2)cc1 (centres unmarked) — CC50 (cell growth or viability, ATP luminescence; 72 h): 7.4 µM
COc1cc([C@@H]2c3cc4c(cc3C=C(C=O)[C@H]2C(=O)N2CCCC2)OCO4)cc(OC)c1OC — CC50 (cell growth or viability, resazurin; 48 h): 27.2 µM
COc1ccc(NC(=O)N2CCCN3CCC(c4ccc(C#CC5CCCC5)cc4)C3C2)cc1 (centres unmarked) — CC50 (cell growth or viability, ATP luminescence; 72 h): 3.67 µM
NCC1OC(OC2C(N)CC(N)C(OC3OC(CO)C(O)C(N)C3O)C2OCCCCCCCCCCCCn2cc(CNc3nc(NCc4cn(CCCCCCCCCCCCOC5C(OC6OC(CN)C(O)CC6N)C(N)CC(N)C5OC5OC(CO)C(O)C(N)C5O)nn4)nc(NCc4cn(CCCCCCCCCCCCOC5C(OC6OC(CN)C(O)CC6N)C(N)CC(N)C5OC5OC(CO)C(O)C(N)C5O)nn4)n3)nn2)C(N)CC1O (centres unmarked) — CC50 (cell growth or viability, resazurin; 48 h): 10.5 µM
NC(=O)C(CC(=O)c1cccc(Oc2ccccc2)c1)c1ccc(Cl)cc1 (centres unmarked) — CC50: > 300 µg/mL
CN(C(=O)c1ccn2ncc(-c3ccc(C(N)=O)cc3)c2c1)C1CCC(C#N)CC1 (centres unmarked) — CC50 (96 h): > 50 µM
CCOC1=CC(=O)c2cc3c(cc2C1=O)CCCC3(C)C — CC50 (cytotoxicity, Alamar Blue; 72 h): 199 ± 14 µM
Nc1ccn([C@@H]2O[C@H](CO)[C@@H](O)[C@H]2F)c(=O)n1 — CC50 (cell growth or viability, SRB; 11 days): > 250 µM
COC(=O)C1C(C=NN=CC2=Cc3cc4c(cc3C(c3cc(OC)c(OC)c(OC)c3)C2C(=O)OC)OCO4)=Cc2cc3c(cc2C1c1cc(OC)c(OC)c(OC)c1)OCO3 (centres unmarked) — CC50 (cell growth or viability, resazurin; 48 h): > 100 µM
NCC1OC(OC2C(N)CC(N)C(OC3OC(CO)C(O)C(N)C3O)C2OCCCCCCCCn2cc(CNc3nc(NCc4cn(CCCCCCCCOC5C(OC6OC(CN)C(O)CC6N)C(N)CC(N)C5OC5OC(CO)C(O)C(N)C5O)nn4)nc(NCc4cn(CCCCCCCCOC5C(OC6OC(CN)C(O)CC6N)C(N)CC(N)C5OC5OC(CO)C(O)C(N)C5O)nn4)n3)nn2)C(N)CC1O (centres unmarked) — CC50 (cell growth or viability, resazurin; 48 h): 72.3 µM
OC[C@H]1O[C@@H](n2cnc3c(O)ncnc32)[C@H](F)[C@@H]1O — CC50 (cell growth or viability, SRB; 11 days): > 250 µM
COC1=CC(=O)c2cc3c(cc2C1=O)CCCC3(C)C — CC50 (cytotoxicity, Alamar Blue; 72 h): 29.7 ± 1.3 µM
COC(=O)c1[nH]c(C(=O)OC)c2c1-c1c[nH]c3cccc(c13)C21CN(C)c2ccccc21 (racemic) — CC50 (cell growth or viability, ATP luminescence; 72 h): > 10 µM
CNC(=O)c1ccc(-c2cnc3cnc(C(=O)N(C)c4ccc(Cl)cc4)cn23)cc1 — CC50 (96 h): 27.3 ± 14.2 µM
CC(=O)Oc1ccc(OC(C)=O)c2cc3c(cc12)CCCC3(C)C — CC50 (cytotoxicity, Alamar Blue; 72 h): 5.94 ± 0.31 µM
Nc1ncnc2c1ncn2[C@@H]1O[C@H](CO)[C@@H](O)[C@H]1F — CC50 (cell growth or viability, SRB; 11 days): 110 µM
CC(=O)Oc1ccc(OC(C)=O)c2c1CC1=C(C2)C(C)(C)CCC1 — CC50 (cytotoxicity, Alamar Blue; 72 h): 37 ± 2.1 µM
NC(=O)C(CC(=O)c1cccc(Oc2ccccc2)c1)c1ccc(F)cc1 (centres unmarked) — CC50: > 300 µg/mL

A few entries again:
COC(=O)c1[nH]c(C(=O)OC)c2c1-c1c[nH]c3ccc(Cl)c(c13)C21C=Nc2ccc(Cl)cc21 (racemic) — CC50 (cell growth or viability, ATP luminescence; 72 h): 10 µM
CNC(=O)c1ccc(-c2cnn3ccc(C(=O)Nc4ccc(C#N)cn4)cc23)cc1 — CC50 (96 h): > 50 µM
O=c1ccn([C@@H]2O[C@H](CO)[C@@H](O)[C@H]2F)c(=O)[nH]1 — CC50 (cell growth or viability, SRB; 11 days): > 250 µM
COc1ccc(NC(=O)N2CCCN3CCC(c4ccc(C#CC5CCCCC5)cc4)C3C2)cc1 (centres unmarked) — CC50 (cell growth or viability, ATP luminescence; 72 h): 7.4 µM
